Experimental data pooled from the literature.
Parts stem from different laboratories: compare values within a part only. Positions count from the first letter of the parent shown.

Sample 1 — target: inorganic phosphate, free oxyanion; method: microfluidic competitive inhibition; matrix: in vitro, cell-free expressed; tested at: not given; direction: lower = stronger binding; measurement: phosphate dissociation constant
Notes: derived from inhibition constants, unchanged parent 615000 nM
Starting sequence: PafA, mature enzyme, eGFP fusion (Elizabethkingia meningoseptica, UniProt Q9KJX5); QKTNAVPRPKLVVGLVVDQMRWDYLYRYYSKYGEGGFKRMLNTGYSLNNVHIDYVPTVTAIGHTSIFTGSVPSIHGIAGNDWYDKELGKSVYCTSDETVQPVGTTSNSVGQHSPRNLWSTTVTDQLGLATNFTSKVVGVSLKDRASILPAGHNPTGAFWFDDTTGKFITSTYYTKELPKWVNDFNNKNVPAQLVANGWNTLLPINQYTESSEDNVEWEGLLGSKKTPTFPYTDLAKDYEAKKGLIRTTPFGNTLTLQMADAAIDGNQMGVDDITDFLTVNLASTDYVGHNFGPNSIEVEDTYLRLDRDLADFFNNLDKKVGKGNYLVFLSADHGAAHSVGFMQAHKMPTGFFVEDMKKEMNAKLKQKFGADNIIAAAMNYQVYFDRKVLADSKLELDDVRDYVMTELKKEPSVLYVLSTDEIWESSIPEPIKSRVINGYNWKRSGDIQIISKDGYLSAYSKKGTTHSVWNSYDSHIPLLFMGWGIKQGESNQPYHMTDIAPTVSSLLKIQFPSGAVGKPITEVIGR
S90V: 1140 µM
D385G: 480 µM
V388G: 660 µM
S457V: 552 µM
E410G: 782 µM
Y402G: 594 µM
V13A: 598 µM

Sample 2 — target: CEBPA, bZIP domain (human); method: DHFR protein complementation; matrix: yeast; reference: wild-type JUN-FOS pair; direction: higher = stronger binding; measurement: binding fitness
Notes: single substitutions, most at no-binding floor
Starting sequence: JUN, bZIP domain (human); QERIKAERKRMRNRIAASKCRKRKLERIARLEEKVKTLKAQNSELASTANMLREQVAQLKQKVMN; partner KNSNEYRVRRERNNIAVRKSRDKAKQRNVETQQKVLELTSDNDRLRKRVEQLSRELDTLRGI
E54V: -1.41 natural log
V56N: -1.44 natural log
L31Q: -1.42 natural log
V56Q: -1.54 natural log
L52I: -1.5 natural log
L52G: -1.49 natural log
L31K: -1.53 natural log
V56T: -1.48 natural log

Sample 3 — target: CCNB1, cyclin fold, Cln2 fusion (human); method: yeast growth competition, sequencing; matrix: yeast; notes: strong parent motif; reference: not given; direction: higher = stronger binding; measurement: normalised enrichment score
Starting sequence: viral docking peptide; YKVKRRLVFGADD; partner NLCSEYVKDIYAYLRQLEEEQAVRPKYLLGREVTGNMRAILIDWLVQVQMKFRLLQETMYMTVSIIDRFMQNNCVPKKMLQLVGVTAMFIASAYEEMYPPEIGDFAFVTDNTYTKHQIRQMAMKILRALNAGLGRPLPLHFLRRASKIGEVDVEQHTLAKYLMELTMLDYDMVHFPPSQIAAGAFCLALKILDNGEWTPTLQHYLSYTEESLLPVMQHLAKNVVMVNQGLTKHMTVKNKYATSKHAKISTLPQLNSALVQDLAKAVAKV
YKVKSRLVFGADD [R5S]: 0.877
YSVKRRLVFGADD [K2S]: 4.47
YKCKRRLVFGADD [V3C]: 2.1
YKAKRRLVFGADD [V3A]: 0.852
YKVKRRLVFGARD [D12R]: 0.93
YKVDRRLVFGADD [K4D]: 2.23
YKVLRRLVFGADD [K4L]: 0.527
YKVKRRMVFGADD [L7M]: 0.703
YKVKRRLVFGAED [D12E]: 3.66
YKMKRRLVFGADD [V3M]: 0.534
YKVKRRLVFWADD [G10W]: 2.42
YKVKTRLVFGADD [R5T]: 1.39
YKVGRRLVFGADD [K4G]: 1.63
YKVKMRLVFGADD [R5M]: 1.78
YKVKRRLVFHADD [G10H]: 3.5
YKVKRILVFGADD [R6I]: 0.677
YKVKRRLMFGADD [V8M]: 3.51
YKVKRRLVFGTDD [A11T]: 4.75
YKVKRVLVFGADD [R6V]: 1.46
YKVKRRLRFGADD [V8R]: 1.33
YKVKKRLVFGADD [R5K]: 3.35
YKVKRRLVFYADD [G10Y]: 3.04
YKVKKRLVLGADD [R5K F9L]: 0.459
YDVKRRLVFGADD [K2D]: 4.68
YKVKRRLDFGADD [V8D]: 5.75

Sample 4 — effect on: binding; method: phage display NGS; form: peptide; notes: panning round 2; reference: input library; measurement: minimum log2 enrichment ratio
Target: UDP-N-acetylglucosamine--peptide N-acetylglucosaminyltransferase 110 kDa subunit (OGT, Homo sapiens, UniProt O15294)
Chain of UniProt O15294 (whole entry, looked up): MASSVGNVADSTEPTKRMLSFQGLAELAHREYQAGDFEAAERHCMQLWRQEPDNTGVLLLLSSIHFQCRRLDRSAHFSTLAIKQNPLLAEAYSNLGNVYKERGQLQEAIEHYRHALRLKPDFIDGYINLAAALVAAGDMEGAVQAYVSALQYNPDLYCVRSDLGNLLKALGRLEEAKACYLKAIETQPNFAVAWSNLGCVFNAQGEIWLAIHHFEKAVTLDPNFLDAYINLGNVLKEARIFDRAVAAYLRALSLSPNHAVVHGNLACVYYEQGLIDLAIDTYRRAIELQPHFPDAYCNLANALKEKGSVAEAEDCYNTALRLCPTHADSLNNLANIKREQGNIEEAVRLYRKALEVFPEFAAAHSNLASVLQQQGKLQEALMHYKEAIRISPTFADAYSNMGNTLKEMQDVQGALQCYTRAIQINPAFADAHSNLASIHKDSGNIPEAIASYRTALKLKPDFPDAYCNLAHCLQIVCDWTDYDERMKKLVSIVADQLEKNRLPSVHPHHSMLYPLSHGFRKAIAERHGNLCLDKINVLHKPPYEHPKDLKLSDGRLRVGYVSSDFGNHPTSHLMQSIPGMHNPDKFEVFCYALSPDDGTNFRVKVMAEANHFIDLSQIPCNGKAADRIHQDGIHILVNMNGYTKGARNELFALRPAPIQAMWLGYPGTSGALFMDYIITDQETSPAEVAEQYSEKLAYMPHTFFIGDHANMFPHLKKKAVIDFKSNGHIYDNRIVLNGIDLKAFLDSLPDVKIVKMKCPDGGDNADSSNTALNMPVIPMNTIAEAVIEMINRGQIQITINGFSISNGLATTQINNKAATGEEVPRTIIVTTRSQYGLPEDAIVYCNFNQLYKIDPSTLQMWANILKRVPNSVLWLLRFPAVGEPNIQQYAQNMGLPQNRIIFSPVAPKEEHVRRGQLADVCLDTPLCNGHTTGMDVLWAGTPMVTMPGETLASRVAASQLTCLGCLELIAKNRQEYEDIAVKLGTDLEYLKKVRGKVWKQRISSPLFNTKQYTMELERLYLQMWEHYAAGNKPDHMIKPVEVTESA
HWVGTTHHSTMHNHD: 2.84
TWLDHFPWHTYHPRD: 3.64
SFVVPRYQIIYKPFQ: 2.48
TKFAPQYILEYSKVY: 2.53
HMFTNQHHFRPMHQA: 3.43
TWRHVVEANHVHMPK: 3.63
HYFPTYMKHHVNFTD: 2.08

Sample 5 — method: RNA Bind-n-Seq; form: RNA; matrix: in vitro; tested at: 20 nM; notes: 6-mer, flanks averaged, single round; added: 150 mM KCl; reference: input library; direction: higher = stronger binding; measurement: 6-mer enrichment (R)
Target: TAR DNA-binding protein 43, full length, His tag (TARDBP, Homo sapiens, UniProt Q13148, residues 1-414)
UCGUAC: 0.585
UAAGCC: 0.637
CCCCCG: 0.693
CACUUG: 0.644
UUAAAC: 0.569
UACACA: 0.629
UUCUGG: 0.825
AACAGU: 0.68

Further values, each from its own experiment
GNAI3 (Homo sapiens, UniProt P08754)  cross-linked residues (GNG12 (Homo sapiens, UniProt Q9UBI6); cross-linking MS; cells; added: BSPNO): K92 to K4
